Assay results of several laboratories.
Each line is one published result; not all experiments were run side by side. ± marks the error that the study gave.

C[N+](C)(C)CCO.O=C([O-])[C@@H](O)Cc1ccccc1 — pH (water; concentration not given): 8.78 ± 1.4
Nc1nc2c(ncn2CC(=O)N[C@@H](Cc2ccccc2)C(=O)N[C@@H](Cc2ccccc2)C(=O)N[C@H]2C(O)O[C@H](CO)[C@@H](O)[C@@H]2O)c(=O)[nH]1 (some centres unmarked) — pH of hydrogelation (water; 3.0 wt%, pH-triggered gelation): ~4
O=C([O-])c1ccc(P(c2ccccc2)c2ccccc2)cc1.O=C([O-])c1ccc(P(c2ccccc2)c2ccccc2)cc1.[Ti+4].c1cc[cH-]c1.c1cc[cH-]c1 — pH (DMSO/water 1:99; 5 x 10 µM): 5.32
Nc1ccn(CC(=O)N[C@@H](Cc2ccccc2)C(=O)N[C@@H](Cc2ccccc2)C(=O)N[C@H]2C(O)O[C@H](CO)[C@@H](O)[C@@H]2O)c(=O)n1 (some centres unmarked) — pH of hydrogelation (water; 3.0 wt%, pH-triggered gelation): ~7.5
C[N+](C)(C)C[C@@H](O)CC(=O)O.O=C([O-])[C@@H](O)Cc1ccccc1 — pH (water; concentration not given): 3.87 ± 0.4
Cn1c(=O)c2c(nc(N3CCNCC3)n2C)n(C)c1=O — pH (water; 10 mM, 25 °C): ~12.5
Cc1ccc(C(C)C)cc1.O=C(N=P(c1ccccc1)(c1ccccc1)c1ccccc1)c1ccccn1.[Cl-].[Cl-].[Ru+2] — pH (water; 5 × 10 µM): 5.76
COC(=O)[C@H](CSSC[C@H](NC(=O)[C@H](Cc1ccccc1)NC(=O)[C@H](Cc1ccccc1)NC(=O)OC(C)(C)C)C(=O)OC)NC(=O)[C@H](Cc1ccccc1)NC(=O)[C@H](Cc1ccccc1)NC(=O)OC(C)(C)C — pH of maximum emission (aqueous solution; pH range 2 to 12): 7

A few entries again:
Cn1c(=O)c2c(nc(N3CCNCC3)n2C)n(C)c1=O — pH (water; 10 mM, 25 °C): ~12.5
